Measured values collected from several papers.
± gives the spread as reported.

C=CC(=O)N1[C@H](c2ccc3c(c2)OCO3)c2[nH]c3ccccc3c2C[C@@H]1C(=O)N1CCN2CCOC[C@@H]2C1  IC50 (NLuc-N112C-CCNE1; probe engagement, gel-based ABPP; HEK293T lysate; 2 h, with: probe YZ-01-A 10 µM): > 20 µM
O=C(/C=C/c1ccc(O)cc1)c1ccccc1  IC50 (HDAC class I, II and IV (human); enzyme activity, inhibitor, fluorometric; K562 cell extract; 1 h, 37 °C): > 1000 µM
CCC(=O)CCCCC[C@@H]1NC(=O)[C@@H](CC(C)C)n2cc(nn2)[C@H]([C@@H](C)CC)NC(=O)[C@H](Cc2c[nH]c3ccccc23)NC1=O  IC50 (histone deacetylase; enzyme activity, inhibitor, fluorescence; HeLa nuclear extract): ~0.2 µM
c1cc2nc(-c3ccc(-c4nc5ccc(C6=NCCN6)cc5[nH]4)[se]3)[nH]c2cc1C1=NCCN1  IC50 (PU.1; reporter gene, inhibitor, measured: EGFP; PU.1-expressing HEK293 cells): ~0.5 µM
COc1cc(CCC(C)=O)ccc1O  IC50 (mouse mAb 1-F12; antibody binding, indirect competitive ELISA; with: coating antigen 6-OVA): 0.22 µg/mL
Oc1ccc(-c2cc(-c3ccc(OCCCN4CCCCC4)cc3)n(-c3ccc(O)cc3)n2)cc1  IC50 (TLR2 (mouse); TNF-alpha production, inhibitor; RAW264.7; 6 h, with: Pam3Cys 100 ng/mL): 7.12 ± 0.54 µM
CC(C)NC(=O)[C@H](CCc1ccccc1)NC(=O)[C@H](CC(=O)NCC(C)(C)C)NC(=O)CCc1ccccc1  IC50 (proteasome β5 site; Proteasome-Glo; WSUDLCL2; 1 h): 0.12 µM
CCC(=O)CCCCC[C@@H]1NC(=O)[C@H](C)n2nncc2[C@H](CC(C)C)NC(=O)[C@H](Cc2c[nH]c3ccccc23)NC1=O  IC50 (histone deacetylase; enzyme activity, inhibitor, fluorescence; HeLa nuclear extract): > 10 µM
COc1ccc(/C=C/C(=O)c2c(O)cc(OC)cc2O)cc1  IC50 (HDAC class I, II and IV (human); enzyme activity, inhibitor, fluorometric; K562 cell extract; 1 h, 37 °C): > 1000 µM
CCCCC/C=C/C(=O)CCc1ccc(O)c(OC)c1  IC50 (mAb 5-3H1; antibody binding, indirect competitive ELISA; with: coating antigen 5-OVA): 0.311 µg/mL
O=C(/C=C/c1ccc(O)cc1)c1ccc(O)cc1O  IC50 (HDAC class I, II and IV (human); enzyme activity, inhibitor, fluorometric; K562 cell extract; 1 h, 37 °C): 110 µM
N=C(N)c1ccc2nc(-c3ccc(-c4nc5ccc(C(=N)N)cc5[nH]4)[se]3)[nH]c2c1  IC50 (PU.1; reporter gene, inhibitor, measured: EGFP; PU.1-expressing HEK293 cells; 24 h): 3.8 µM
O=C(/C=C/c1ccc(O)c(O)c1)c1c(O)cc(O)cc1O  IC50 (HDAC class I, II and IV (human); enzyme activity, inhibitor, fluorometric; K562 cell extract; 1 h, 37 °C): > 1000 µM
Cc1ccc(CNC(=O)C(CCc2ccccc2)NC(=O)C(NC(=O)c2ccc(OCc3ccc(C(C)(C)C)cc3)cc2)C(C)O)cc1 (stereo not shown)  IC50 (proteasome β5 site; Proteasome-Glo; Karpas-1106P; 1 h): 0.2 µM
COc1cccc(/C=C/C(=O)c2ccccc2O)c1OC  IC50 (HDAC class I, II and IV (human); enzyme activity, inhibitor, fluorometric; K562 cell extract; 1 h, 37 °C): > 1000 µM
O=c1c(O)c(-c2ccc(O)cc2O)oc2c(Br)c(O)c(Br)c(O)c12  IC50 (BSA glycation; fluorescence; with: methylglyoxal): 10.1 to 100 µM

Some of these lines once more:
CCC(=O)CCCCC[C@@H]1NC(=O)[C@H](C)n2nncc2[C@H](CC(C)C)NC(=O)[C@H](Cc2c[nH]c3ccccc23)NC1=O  IC50 (histone deacetylase; enzyme activity, inhibitor, fluorescence; HeLa nuclear extract): > 10 µM
COc1ccc(/C=C/C(=O)c2c(O)cc(OC)cc2O)cc1  IC50 (HDAC class I, II and IV (human); enzyme activity, inhibitor, fluorometric; K562 cell extract; 1 h, 37 °C): > 1000 µM
